Measurements pooled from the literature.
Parts stem from different laboratories: compare values within a part only. Positions count from the first letter of the parent shown.

Sample 1
Target: Sal-like protein 4, full length isoform A (SALL4, Homo sapiens, UniProt Q9UJQ4, residues 1-1053)
Chain of UniProt Q9UJQ4 (whole entry, looked up): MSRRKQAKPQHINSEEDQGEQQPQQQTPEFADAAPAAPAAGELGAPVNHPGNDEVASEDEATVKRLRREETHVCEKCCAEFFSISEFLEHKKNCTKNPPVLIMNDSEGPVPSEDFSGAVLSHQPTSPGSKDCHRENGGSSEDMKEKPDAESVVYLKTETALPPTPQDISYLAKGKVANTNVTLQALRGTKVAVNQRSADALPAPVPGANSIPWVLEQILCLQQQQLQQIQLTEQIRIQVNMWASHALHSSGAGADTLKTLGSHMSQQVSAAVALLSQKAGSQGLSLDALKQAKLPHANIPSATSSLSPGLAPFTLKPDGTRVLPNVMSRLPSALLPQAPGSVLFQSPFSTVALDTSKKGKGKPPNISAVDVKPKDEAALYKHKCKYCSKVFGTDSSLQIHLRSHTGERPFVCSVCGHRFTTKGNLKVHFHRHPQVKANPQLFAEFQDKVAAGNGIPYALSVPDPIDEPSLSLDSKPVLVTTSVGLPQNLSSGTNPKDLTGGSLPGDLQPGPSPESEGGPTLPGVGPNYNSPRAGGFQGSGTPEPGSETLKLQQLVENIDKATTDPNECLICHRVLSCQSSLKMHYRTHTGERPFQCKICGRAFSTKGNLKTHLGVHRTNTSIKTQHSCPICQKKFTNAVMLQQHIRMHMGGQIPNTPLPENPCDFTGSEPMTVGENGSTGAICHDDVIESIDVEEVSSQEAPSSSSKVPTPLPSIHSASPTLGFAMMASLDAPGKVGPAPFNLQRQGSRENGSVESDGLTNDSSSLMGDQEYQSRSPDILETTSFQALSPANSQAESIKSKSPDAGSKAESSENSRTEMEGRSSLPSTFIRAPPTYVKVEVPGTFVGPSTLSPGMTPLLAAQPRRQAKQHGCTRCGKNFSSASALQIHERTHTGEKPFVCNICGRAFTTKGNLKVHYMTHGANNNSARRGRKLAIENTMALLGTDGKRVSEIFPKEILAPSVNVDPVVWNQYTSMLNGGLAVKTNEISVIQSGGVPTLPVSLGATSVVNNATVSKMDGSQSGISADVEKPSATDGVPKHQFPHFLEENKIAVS
Technique: universal PBM
Form: double-stranded DNA, one strand shown
Medium: in vitro
Concentration: 600 nM
Notes: 8-mer, flanks averaged, mean of replicates
Direction: higher = stronger binding
Endpoint: E-score
CCTAAAAG: -0.191
AGCCAATC: -0.045
AGAACGTA: 0.0362
TACACCCA: 0.0241
ACCTAGAT: -0.16
GGCTGATA: -0.0115
CCCTCCTA: -0.12
AATCGCCG: -0.249
ATAGTCTG: 0.187
GTACGCTA: -0.0448
CTTCCATA: 0.271
ATTTTAGC: 0.144
AGGGTTCG: -0.276
AATTTATG: 0.383
AATTAGAA: 0.207
AGCCTATA: 0.197
CAAAGTCA: 0.0863
CGTAAGGA: 0.0242

Sample 2
Target: ABI1, truncated, D143A, DHFR fusion (Arabidopsis thaliana, UniProt P49597)
Technique: DHFR PCA, dose-response
Medium: yeast
Notes: Hill fit, mean, not affinity
Added: (+)-ABA, dose series
Direction: lower = more sensitive
Endpoint: ABA EC50
Starting sequence: PYL1, truncated, DHFR fusion (Arabidopsis thaliana, UniProt Q8VZS8); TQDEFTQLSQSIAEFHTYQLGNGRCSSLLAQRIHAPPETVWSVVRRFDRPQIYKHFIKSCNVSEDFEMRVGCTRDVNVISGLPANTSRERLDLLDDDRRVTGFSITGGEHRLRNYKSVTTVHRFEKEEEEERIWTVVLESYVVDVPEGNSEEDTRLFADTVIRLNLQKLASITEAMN
E4F: 12 µM
A13L: 3.82 µM
S150Y: 65.5 µM
R49K: 2.15 µM
D159C: 66.7 µM
G81C: 93.2 µM
G21D: 1.98 µM
T119I: 14.9 µM
E67C: 2.86 µM
S9D: 2.46 µM
I33S: 360 µM
R49T: 2.61 µM
R163S: 5.3 µM
T1H: 2.24 µM
S9V: 7.58 µM

Sample 3
Target: Ras GTPase-activating protein-binding protein 1, C-terminal RGG region (G3BP1, Homo sapiens, UniProt Q13283)
Chain of UniProt Q13283 (whole entry, looked up): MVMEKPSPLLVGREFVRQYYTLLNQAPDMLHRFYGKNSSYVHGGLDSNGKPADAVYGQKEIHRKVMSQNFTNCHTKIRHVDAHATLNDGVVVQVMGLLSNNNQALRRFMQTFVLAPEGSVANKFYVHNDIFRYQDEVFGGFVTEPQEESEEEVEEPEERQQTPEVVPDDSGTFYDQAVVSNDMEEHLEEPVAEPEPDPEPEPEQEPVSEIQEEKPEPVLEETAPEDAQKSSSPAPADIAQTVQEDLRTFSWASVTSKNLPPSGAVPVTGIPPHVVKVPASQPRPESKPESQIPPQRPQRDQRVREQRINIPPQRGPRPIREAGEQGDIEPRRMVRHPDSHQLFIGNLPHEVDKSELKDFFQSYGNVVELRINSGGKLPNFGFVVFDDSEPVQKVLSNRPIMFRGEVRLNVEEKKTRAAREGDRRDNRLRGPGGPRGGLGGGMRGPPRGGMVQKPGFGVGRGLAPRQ
Technique: RNA Bind-n-Seq
Form: RNA
Medium: in vitro
Concentration: 1 µM
Notes: whole 134-nt RNA, ends assumed
Added: 150 mM KCl
Reference: input library
Direction: higher = stronger binding
Endpoint: log2 enrichment
Shared flanks, not repeated: GGGAGUUCUACAGUCCGACGAUC … UGGAAUUCUCGGGUGUCAAGG
UAACUUCAGAGGAGGAUCUGAUGGAUAUGGCAGUGGACGUGGAUUUGGGGAUGGCUAUAAUGGGUAUGGAGGAGGACCUGGAGGUGGCAA: -1.86
GUCCUGUGCUACACAUCGUAUGUACCGAAUCGGCCCCCCGGCCCCCCGGCCCCCCGGGAAAGUAUUAUGUUACGCCGUUCGGAUCUGCAC: -1.09
AGUCCUGUGCUACACAUCGUAUGUACCGAAUCGGGUGGGUUUUUUUGGGUUUUUGGGAAAGUAUUAUGUUACGCCGUUCGGAUCUGCACU: -0.406
CUGUGCUACACAUCGUAUGUACCGAAUCGGUUUUUUUGGGGUUUUUUUGGGUUUUUUUGGGGAAAGUAUUAUGUUACGCCGUUCGGAUCU: -1.14
CCUGUGCUACACAUCGUAUGUACCGAAUCGGGUUUUUUUGGUUUUUUUGGGUUUUUUUGGGAAAGUAUUAUGUUACGCCGUUCGGAUCUG: -1.71
GUCCUGUGCUACACAUCGUAUGUACCGAAUCGGAAAAAGGGGAAAAAGGGGAAAAAGGGAAAGUAUUAUGUUACGCCGUUCGGAUCUGCA: -0.482
CACAGACAACACGCACAAACACAGACACAGAGGGAAGGGGUUGGGAUGGGGACAGGGUGCACAGCAGGGCGGGGUAGGACCCCAGCCCCU: -0.335

Sample 4
Target: Transcription factor SOX-2, HMG box (Sox2, Mus musculus, UniProt P48432, residues 41-119)
Chain of UniProt P48432 (41-119, looked up): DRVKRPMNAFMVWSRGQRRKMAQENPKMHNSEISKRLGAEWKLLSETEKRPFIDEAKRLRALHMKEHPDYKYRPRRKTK
Technique: Spec-seq
Form: double-stranded DNA, one strand shown
Medium: in vitro
Concentration: not given
Notes: whole probe, mean of replicates
Reference: not given
Direction: lower = stronger binding
Endpoint: relative binding energy
Shared flanks, not repeated: GAGTCGTCTCGTCAGCAC … CCGTAGAGCACTCAGGTC
CATGGAT: -0.0251 ln ratio
CATGATA: 0.0218 ln ratio
CATTTTG: -0.154 ln ratio
CATGAGA: 0.242 ln ratio
CATCGTT: 0.304 ln ratio
TAGCGTT: 0.892 ln ratio
CATATGG: -0.104 ln ratio
CATATAC: -0.184 ln ratio
CATCTCA: 0.768 ln ratio
CATTAAC: -0.399 ln ratio
GCGTGTT: 1.2 ln ratio
CATTCCC: 0.606 ln ratio
CATCCGA: 1.06 ln ratio

Sample 5
Target: CCND2, cyclin fold, Cln2 fusion (human)
Technique: yeast growth competition, sequencing
Medium: yeast
Notes: weak parent motif
Reference: not given
Direction: higher = stronger binding
Endpoint: normalised enrichment score
Starting sequence: BRCA2 docking peptide (human); PSIKRNLLNEFDR
F11S: -0.488
L7Y: -0.107
L8C: 0.163
K4R: 0.0998
N9A: 0.203
R13Q: 0.0437
S2C: 0.12
E10V: 0.0306
I3E: 0.24
R5K: 0.125
P1D: 0.221
F11T: 0.277
P1E: 0.398
R13H: 0.136

Sample 6
Target: RING finger protein unkempt homolog, zinc fingers 1-6, GST-SBP tag (UNK, Homo sapiens, UniProt Q9C0B0, residues 30-357)
Chain of UniProt Q9C0B0 (30-357, looked up): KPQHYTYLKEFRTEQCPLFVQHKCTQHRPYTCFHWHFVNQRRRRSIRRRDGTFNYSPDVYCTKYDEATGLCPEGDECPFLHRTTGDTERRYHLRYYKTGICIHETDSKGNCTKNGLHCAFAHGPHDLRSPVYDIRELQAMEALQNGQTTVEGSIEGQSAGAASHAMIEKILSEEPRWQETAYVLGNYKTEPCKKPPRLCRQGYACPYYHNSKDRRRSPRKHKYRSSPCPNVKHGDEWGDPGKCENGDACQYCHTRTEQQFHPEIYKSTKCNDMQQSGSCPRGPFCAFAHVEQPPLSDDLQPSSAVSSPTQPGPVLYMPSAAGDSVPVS
Technique: RNA Bind-n-Seq
Form: RNA
Medium: in vitro
Concentration: not given
Notes: RNA with constant flanks, human and mouse sites, ends assumed
Reference: input RNA pool
Direction: higher = stronger binding
Endpoint: bound/input enrichment
Shared flanks, not repeated: GGGAGUUCUACAGUCCGACGAUC … CAACAGAGGAUUGAGCAUCA
GGACAUUCUUGAGGUUUAACCUUGAUCCCUUGUGCUUCGGGCCCCAGCCUGUUGCUUGUGUUAGCAGAGGUUUGGUCAGCUCUGUGCCACUGCUCCAGAGAAGUACUACUCACUGGCCUG: 0.119 ratio
UCCCUAGUGCAUACCUGUUCGCUUCUCAUUCUCUUUUGUCUCCCCUUUCCUCGCCUCUCCCUUUUCCAUGCCGUCCAUGAUCCCCACCCCAUGUGUUAAGAAGGCAGUAGCCUUUACAGG: 1.4 ratio
GCCAGCAAGAACGAGGAGGACGCGGGAAAAAUGUUCGUUGGUGGCCUGAGCUGGGAUACUAGCAAAAAAGAUUUAAAAGACUAUUUUACUAAAUUUGGAGAGGUCGUUGACUGUACAAUA: 0.996 ratio
GUGGAUGUUUUGAUUGACACAUGUCAAGGUGAUGACGCACUUCCAAAUGGGUUAGACGUUACCUUUGAAGUAACUGAAUUGAGGAGAUUAACGGGCAGUUAUAACACCAUGGUUGGAAAC: 0.377 ratio
AGACUGUCUGUUGUUGCCUUCUCAGAGUUUUGCAGCUCAGGGUUGGGGCCUAGUUACAGUUUGGAUCCUUAGUCCAAGAAUUUUGAGAACGUGAGUAAAACCUUGGCAGGAGCUAAAAAA: 0.289 ratio
AUGGAUUUCUGUAGCCAUACCAAAGCCAGGGUGUUUUCAUUCAUGCGGAUACUAGUAUUUAUAGAUGUCUGACUACCUAACUUAAUUUUUGUUUUUGAACUUCUAAUUGGGGCCAGUGUA: 1.71 ratio
AAGCAAUGUGGGAAAACUUUCAAUUGGCCCAUAUCUUUACGAAAACAUAUGAGAACACAUACUAGAGAGAAACCCUAUGAAUGUAAGCAGUGUGGGAAAGCCUUCAGCUUGUCUGCUUGC: 0.289 ratio
UUACUUUUAACUCCAUGGGUUAAAUUCCUGUGGGAGUCUUACAGGCAGUGUUUGGACCUUCUUAGAAACAAUUCUAGAGUAGAGCGCCUGUACCAUGAUAUUGCCCAGCAAGCUUUCAAA: 0.333 ratio
